Published values collected from several papers.
Protocols differ between the studies behind these lines. ± gives the spread as reported.
Organism: Escherichia coli

SMILES	assay	test system	conditions	how to read	MIC
CC[C@H](C)[C@H](NC(=O)[C@H](CO)NC(=O)[C@H](CO)NC(=O)[C@H](Cc1ccccc1)NC(=O)CN)C(=O)N[C@@H](Cc1ccccc1)C(=O)N[C@@H](CCCNC(=N)N)C(=O)NCC(=O)N[C@H](C(=O)N[C@@H](C)C(=O)N[C@@H](CCCCN)C(=O)N[C@@H](Cc1ccccc1)C(=O)N[C@@H](C)C(=O)N[C@@H](CO)C(=O)N[C@@H](CCCCN)C(=O)NCC(=O)N[C@@H](CC(C)C)C(=O)NCC(=O)N[C@@H](CCCCN)C(N)=O)C(C)C	–	ATCC 8739	pretreated trypsin 0.5 mg/mL	–	> 128 µM
CC[C@H](C)[C@H](NC(=O)[C@H](CCCCN)NC(=O)[C@H](CCC(=O)O)NC(=O)[C@H](CO)NC(=O)[C@H](CCCNC(=N)N)NC(=O)[C@@H](N)CO)C(=O)N[C@H](C(=O)N[C@@H](Cc1c[nH]cn1)C(=O)N[C@@H](CCC(N)=O)C(=O)N[C@@H](CCCNC(=N)N)C(=O)N[C@@H](CC(C)C)C(=O)N[C@@H](Cc1ccccc1)C(N)=O)C(C)C	broth microdilution	Mueller Hinton broth	–	–	> 400 µg/mL
Cc1cc(N)c2cc(NC(=O)c3ccc4c(-c5ccccc5O)cccc4c3)ccc2n1	–	BW25113 wild type	–	–	50 µM
CC[C@H](C)[C@H](NC(=O)[C@H](CCCCN)NC(=O)[C@H](CC(N)=O)NC(=O)[C@H](Cc1c[nH]c2ccccc12)NC(=O)[C@H](Cc1ccccc1)NC(=O)[C@H](CCCCN)NC(=O)[C@H](CCCNC(=N)N)NC(=O)[C@H](CC(C)C)NC(=O)[C@H](Cc1c[nH]c2ccccc12)NC(=O)[C@H](CCCCN)NC(=O)[C@H](CCCNC(=N)N)NC(=O)[C@H](CC(C)C)NC(=O)CNC(C)=O)C(=O)N[C@@H](CCCCN)C(=O)N[C@@H](CCCNC(=N)N)C(N)=O	broth microdilution	ATCC 25922	–	–	3.12 µM
CCCCCCCCCCCCCCC(=O)N[C@@H](CCCCN)C(=O)N[C@@H](CCCCN)C(=O)N[C@@H](CCCCN)C(=O)N[C@@H](CCCCN)C(N)=O	broth microdilution	K12, water pH 7	18 h, 37 °C	–	16 µg/mL
CC[C@H](C)[C@H](NC(=O)[C@H](CCCNC(=N)N)NC(=O)[C@H](CCC(N)=O)NC(=O)[C@@H](NC(=O)[C@@H](NC(=O)[C@H](CCCNC(=N)N)NC(=O)[C@@H](N)CCCCN)[C@@H](C)CC)C(C)C)C(=O)N[C@@H](CCCCN)C(=O)N[C@@H](CC(=O)O)C(=O)N[C@@H](Cc1ccccc1)C(=O)N[C@@H](CC(C)C)C(=O)N[C@@H](CCCNC(=N)N)C(N)=O	broth microdilution	ATCC 25922	15 h, 37 °C	–	40 µM
CCCCCCCCCCCC[S+]([O-])CC1OC(OC2C(N)CC(N)C(OC3OC(CN)C(O)CC3N)C2O)C(O)C(N)C1O (mixture of isomers)	–	BL21(DE3) pET22b	–	–	> 150 µg/mL
CCc1ccc([C@@H]2C[C@H](C(F)(F)F)n3ncc(C(=O)NCc4ccc(OC)cc4)c3N2)cc1	broth microdilution	3	–	–	> 64 µM
Cc1cc(N)c2cc(NC(=O)c3ccc4cc(C5CC5)ccc4c3)ccc2n1	–	BW25113 wild type	–	–	200 µM
CC[C@@H](C)[C@@H](NC(=O)[C@@H](C)NC(=O)[C@H](NC(=O)[C@@H](CC(=O)O)NC(=O)[C@@H](CCCCN)NC(=O)[C@@H](CO)NC(=O)[C@H](NC(=O)[C@@H](CC(N)=O)NC(=O)[C@@H](C)NC(=O)[C@H](NC(=O)[C@@H](CCC(=O)O)NC(=O)[C@@H](CCCCN)NC(=O)[C@H](NC(=O)[C@H](NC(=O)[C@@H](Cc1c[nH]cn1)NC(=O)[C@@H](CCCCN)NC(=O)[C@H](NC(=O)[C@@H](CCCCN)NC(=O)[C@@H](CCCCN)NC(=O)[C@H](NC(=O)[C@@H](CC(C)C)NC(=O)[C@@H](CCCCN)NC(=O)[C@@H](CC(N)=O)NC(=O)[C@@H](Cc1ccccc1)NC(=O)[C@@H](CCCNC(=N)N)NC(=O)[C@@H](CCCCN)NC(=O)[C@@H](CCCNC(=N)N)NC(=O)[C@@H](Cc1ccccc1)NC(=O)CN)C(C)C)C(C)C)[C@H](C)O)[C@H](C)CC)[C@H](C)O)C(C)C)C(C)C)C(=O)N[C@@H](C(=O)N[C@H](C)C(=O)NCC(=O)N[C@H](CO)C(=O)NCC(=O)N[C@@H](C(=O)N[C@H](C)C(=O)N[C@@H](C(=O)NCC(=O)N[C@H](C)C(=O)N[C@H](C)C(=O)N[C@H](CCSC)C(N)=O)C(C)C)C(C)C)C(C)C	broth microdilution	ATCC 25922, CAMHB	–	–	16 µg/mL
CCCCCCSCC1OC(OC2C(N)CC(N)C(OC3OC(CN)C(O)CC3N)C2O)C(O)C(N)C1O (stereo not shown)	–	BL21(DE3) AAC(6')/APH(2'')	–	–	> 150 µg/mL
CC[C@H](C)[C@@H]1NC(=O)CNC(=O)[C@H](CCCCN)NC(=O)[C@H](C)NC(=O)[C@H](CCC(=O)O)NC(=O)[C@H](Cc2ccccc2)NC(=O)[C@H](CO)NC(=O)[C@H](CC(C)C)NC(=O)[C@H](C(C)C)NC(=O)[C@H](CC(=O)O)NC(=O)[C@@H](NC(=O)[C@@H](NC(=O)[C@@H](N)C(C)C)[C@@H](C)O)CSSC[C@@H]2NC(=O)[C@H](CO)NC(=O)CNC(=O)CNC(=O)[C@H](CCCCN)NC(=O)[C@H](CCCCN)NC(=O)[C@H](CCCNC(=N)N)NC(=O)[C@H](CC(C)C)NC(=O)[C@H](C)NC(=O)[C@H]([C@@H](C)CC)NC(=O)[C@H](CSSC[C@@H](C(=O)N[C@@H](CCCNC(=N)N)C(=O)N[C@@H](CC(N)=O)C(=O)O)NC(=O)[C@H](C(C)C)NC(=O)[C@H](C)NC(=O)[C@H](C(C)C)NC(=O)CNC(=O)[C@H](CC(N)=O)NC(=O)[C@H](CCC(N)=O)NC2=O)NC(=O)[C@H](Cc2c[nH]cn2)NC(=O)[C@H](CC(C)C)NC(=O)[C@H](C)NC(=O)[C@H](C)NC(=O)[C@H](C)NC(=O)[C@H](CO)NC(=O)[C@H](Cc2c[nH]cn2)NC(=O)[C@H](CC(N)=O)NC(=O)[C@H](C(C)C)NC(=O)[C@H](C)NC1=O	broth microdilution	KCTC 1682	16 h, 37 °C	–	> 100 µM
CC[C@H](C)[C@H](NC(=O)[C@@H](Cc1ccccc1)NC)C(=O)N[C@@H](CO)C(=O)N[C@H](CCCNC(=N)N)C(=O)N[C@@H](C(=O)N[C@H](C(=O)OC[C@H](N)C(=O)N[C@H]1C(=O)N[C@@H](C)C(=O)N[C@@H](C2CCCCC2)C(=O)N[C@@H]([C@@H](C)CC)C(=O)O[C@H]1C)[C@@H](C)CC)[C@@H](C)CC	broth microdilution	ATCC 10798, Mueller-Hinton broth	16 h, 37 °C	–	> 8 µg/mL
CC[C@H](C)[C@H](NC(=O)[C@@H](NC(=O)[C@H](CCCCN)NC(=O)CNC(=O)[C@@H](NC(=O)[C@@H](NC(=O)[C@H](CO)NC(=O)[C@@H](NC(=O)[C@@H](NC(=O)[C@@H]1CCCN1C(=O)[C@@H](NC(=O)[C@@H](NC(=O)CN)[C@@H](C)CC)[C@@H](C)CC)[C@@H](C)CC)[C@@H](C)CC)[C@@H](C)CC)[C@@H](C)CC)[C@@H](C)CC)C(N)=O	broth microdilution	K12	–	–	> 34 µM
CC(C)[C@@H]1NC(=O)[C@@H]2CCCN2C(=O)[C@@H](C)NC(=O)[C@H](CO)NC(=O)[C@H](C)NC(=O)[C@H](C(C)(C)C)NC(=O)[C@H](CCO)NC(=O)[C@H](Cc2c[nH]c3ccccc23)NC(=O)[C@H](CCO)NC(=O)[C@@H](CCN)NC(=O)[C@H](CCC(N)=O)NC(=O)[C@H](CCN)NC(=O)[C@H](Cc2ccc(O)cc2)NC(=O)[C@H]([C@@H](C)O)NC1=O	broth microdilution	MCR2, colistin-resistant, mcr plasmid, CAMHB with polysorbate-80	16 h, 37 °C, together with: 0.002% polysorbate-80	–	> 64 µg/mL
CC(C)C[C@H](NC(=O)[C@H](Cc1ccc(O)cc1)NC(=O)[C@@H]1CCCN1C(=O)[C@H](CCCNC(=N)N)NC(=O)[C@@H]1CCCN1C(=O)[C@H](CCCCN)NC(=O)[C@H](CC(=O)O)NC(=O)[C@@H]1CCCN1C(=O)[C@H](CCCNC(=N)N)NC(=O)C1(N)CCCCC1)C(=O)N1CCC[C@H]1C(=O)N[C@@H](CCCNC(=N)N)C(=O)N1CCC[C@H]1C(=O)N[C@@H](CCCNC(=N)N)C(=O)N1CCC[C@H]1C(=O)N1CCC[C@H]1C(=O)N[C@@H](CCCNC(=N)N)C(=O)N1CCC[C@H]1C(=O)N[C@H](C(=O)N[C@@H](CCCNC(=N)N)C(=O)N[C@@H](CSCC(N)=O)C(=O)NN)C(C)C	bacterial growth	ATCC 25922, 100% Mueller-Hinton broth	90 min, 37 °C, strain ATCC 25922	–	2.5 ± 1.1 µg/mL
O=C(NCCNCCO)c1cn(Cc2ccccc2)c2cc(OCc3ccc(C(F)(F)F)cc3)c(Cl)cc2c1=O	–	ATCC 25922	–	≥80% growth inhibition	> 32 µg/mL
CCCCCCCCCCCCCCCCCCCCCCSCC1OC(OC2C(N)CC(N)C(OC3OC(CN)C(O)CC3N)C2O)C(O)C(N)C1O (stereo not shown)	–	BL21(DE3)	–	–	> 150 µg/mL
OB(O)c1cnn(-c2cc(Cl)ncn2)c1	bacterial growth	TEM-3 ESBL clinical isolate	cefotaxime alone	–	1 µg/mL
CC(C)C[C@@H]1NC(=O)[C@H](C)NC(=O)[C@@H]2NC(=O)[C@H](CO)NC(=O)[C@@H](CCCCN)NC(=O)[C@H](NC(=O)[C@@H](N)Cc3ccccc3)CCCCCCCC[C@H](NC1=O)C(=O)O[C@H]2C	–	ATCC 10798	TFA salt	–	> 32 µg/mL
CC[C@H](C)[C@H](NC(=O)[C@H](CC(=O)O)NC(=O)[C@H](Cc1ccccc1)NC(=O)[C@H](CC(C)C)NC(=O)CN)C(=O)N[C@H](C(=O)N[C@@H](CCCCN)C(=O)N[C@@H](CCCCN)C(=O)N[C@H](C(=O)N[C@@H](CC(C)C)C(=O)N[C@@H](CCCCN)C(=O)N[C@@H](CC(C)C)C(=O)N[C@@H](CC(C)C)C(=O)N[C@@H](CCCCN)C(N)=O)C(C)C)C(C)C	–	ATCC 25922, CAMHB	18 h, 37 °C	–	> 20 µM
CCCCCCCCCCCCCCCCCC(=O)N[C@@H](CCCCN)C(=O)N[C@@H](CCCCN)C(=O)N(CCCCN)CC(=O)N[C@@H](CCCCN)C(=O)N[C@@H](CCCCN)C(N)=O	broth microdilution	K12, water pH 7	18 h, 37 °C	–	8 µg/mL
CC[C@H](C)[C@H](N)C1=N[C@H](C(=O)N[C@@H](Cc2ccccc2)C(=O)N[C@H](CCC(=O)O)C(=O)N[C@H](C(=O)N[C@H]2CCCCNC(=O)[C@H](CC(N)=O)NC(=O)[C@@H](CC(=O)O)NC(=O)[C@H](Cc3c[nH]cn3)NC(=O)[C@@H](Cc3ccccc3)NC(=O)[C@H]([C@@H](C)CC)NC(=O)[C@@H](CCCN)NC2=O)[C@@H](C)CC)CS1	broth microdilution	ATCC 25922, LB medium	18 h, 37 °C, together with: ZnSO4 0.3 mM	–	> 64 µg/mL
CC1C(=NNC(=O)c2ccncc2)C(C)C(c2ccc(Cl)cc2)OC1c1ccc(Cl)cc1 (stereo not shown)	microbial growth, broth dilution	MTCC443	24 h	–	12.5 µg/mL
CCCCCCCCCCCCCCCCCC(=O)N[C@@H](CCCN)C(=O)N[C@@H](CCCN)C(=O)N[C@@H](CCCN)C(=O)N[C@@H](CCCN)C(=O)N[C@@H](CCCN)C(N)=O	broth microdilution	K12	16-24 h, 37 °C, prepared at pH 7	–	16 µg/mL
